Results gathered from unrelated publications.
Each numbered part is a random draw from the data of one study; scales do not carry over between parts.

Sample 1
Target: Histone acetyltransferase KAT6A, both winged helices, GST fusion (KAT6A, Homo sapiens, UniProt Q92794, residues 1-181)
Method: protein binding microarray
Molecule type: double-stranded DNA, one strand shown
Matrix: in vitro
Tested at: not given
Setting: 8-mer, flanks averaged, mean of 2 arrays, mostly near background
Relative to: not given
Direction: higher = stronger binding
Construct (chain): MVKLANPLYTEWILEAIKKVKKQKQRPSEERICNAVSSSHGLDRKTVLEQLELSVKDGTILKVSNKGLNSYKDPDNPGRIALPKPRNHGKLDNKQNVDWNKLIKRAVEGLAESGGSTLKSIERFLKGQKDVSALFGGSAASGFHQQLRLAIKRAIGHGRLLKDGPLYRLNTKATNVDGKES
With `ACCATGTC` the E-score was 0.0505.
`GCTTTAAA` has an E-score of -0.127.
The E-score of `CCTGTTTA` is reported as 0.00114.
For `GCTGATAA`, the E-score was 0.0826.
`ACGTACTA` has an E-score of -0.23.
The E-score of `AGAGACAC` is reported as -0.173.
The E-score of `TGACGACA` is reported as -0.0575.
The E-score of `GATAACCA` is reported as -0.148.
For `CACGTCGG`, the E-score was 0.137.
For `GAAACGTA`, the E-score was 0.0818.
With `CGTGCATC` the E-score was -0.0299.
`AGTAAGCG` has an E-score of 0.122.
`TATGTGCA` gave an E-score of -0.0143.
With `CAGAGCGG` the E-score was 0.148.
`GAATGAAC` has an E-score of 0.0659.
The E-score of `GCGTGCTA` is reported as 0.0664.
For `AACGGGTA`, the E-score was 0.237.
`AACCCCGA` gave an E-score of 0.195.
For `CCGTCTAC`, the E-score was 0.169.
For `ACGCTATC`, the E-score was 0.0512.
`AATCCGCA` has an E-score of 0.221.
`CGCATGAG` gave an E-score of 0.0772.
The E-score of `GTTCTTAA` is reported as -0.0548.
With `GGATGTAA` the E-score was 0.0432.
`AGTCAACA` has an E-score of -0.174.

Sample 2
Target: RNA binding protein fox-1 homolog 2, RRM domain, GST-SBP tag (RBFOX2, Homo sapiens, UniProt O43251-10, residues 100-194)
Method: RNA Bind-n-Seq
Molecule type: RNA
Matrix: in vitro
Tested at: 365 nM
Setting: natural RNA segment, single round, ends assumed
Relative to: no-protein control
Direction: higher = stronger binding
Residues (chain): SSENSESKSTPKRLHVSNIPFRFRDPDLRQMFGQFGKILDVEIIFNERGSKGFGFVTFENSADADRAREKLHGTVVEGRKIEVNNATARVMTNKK
`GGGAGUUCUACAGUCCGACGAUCCAGCUGCAGACCUAAGCCCUCCCCCACCCCUGGAAAGGUCCCUCCCCAACCCAGGCCCCUGGCGUGUGUGGGUGUGCGUGCGUGUGCGUGCCGUGUUCGUGUGCAAGGGGUGGAAUUCUCGGGUGCCAA`: “RBNS enrichment (R)” 0.492.
Under “RBNS enrichment (R)”, `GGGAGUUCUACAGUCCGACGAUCUAUUCACUUUAUAUCCCACUCACUGUCUCCCUCCCUGUCACUUAUUUCCACAAUCAUCCCCCCACCCCCAUCUCCCCUUCUUCUCUUUGCUGGUGGGGUCCCCCCUGGUAUGGAAUUCUCGGGUGCCAA` is recorded as 0.789.
Under “RBNS enrichment (R)”, `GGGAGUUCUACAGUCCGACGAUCGGGGAAGACGAUUAACACACCUCUUACAGUAAUACUGCCUGUUAUUGGUAUAGCAGUGGUAUUUGCAGACUGGGAUCAUAAGGAGCCCUUAAAUACUUGUUAUUGACUGGUGGAAUUCUCGGGUGCCAA` is recorded as 0.289.
Under “RBNS enrichment (R)”, `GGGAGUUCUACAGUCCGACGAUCCCUAAGUAAAUUCUGCAUUCUCAUAGUUGUGUCCCAAUUAACCAAAAAGUUGUCUCUAGAGAAAAUACUAUUACAAUCUAAGCAUGAUUCUCUGUGGAGACUAAUUUUUUUGGAAUUCUCGGGUGCCAA` is recorded as 5.46.
For `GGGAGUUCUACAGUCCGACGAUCAGGCCAUCUUCUGUGUCGGUGCUGUGAUCUGCCUUGUUCUCACUUGCUGAGGAUAAGGGCAUACACGCUGCUCCUCGCUUUCUUGUUGCCCGACUUCGUACUAAGCAGCUUGGAAUUCUCGGGUGCCAA`, “RBNS enrichment (R)” read 0.271.
Under “RBNS enrichment (R)”, `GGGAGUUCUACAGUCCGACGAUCAAGACUAUGUCCUAGUGGAGGGAGUAAUCCUAACACCCAGGCUGGCCGCCAGCUGGCACCUGCCUCUAUCCCAGACUGCCCUCGUCCCAGCUCUCUGUCCAACUGUUGAUUGGAAUUCUCGGGUGCCAA` is recorded as 0.252.
For `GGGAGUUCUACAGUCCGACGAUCGCCCUCUGCCUCAGCCCCACUAGGGGAACAACAGGAGGCCUGCUGGGGCUUAGAGUCCGUGCAGGUGGGGAUAUGGGUAAAUCUAGGAGAACUCACAGAUCUUUAUAUGAUGGAAUUCUCGGGUGCCAA`, “RBNS enrichment (R)” read 0.484.
Under “RBNS enrichment (R)”, `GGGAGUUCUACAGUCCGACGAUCCUUUAAGUGUUGGCUGUAUGUGCUGGGUUCUCUAAAGAAGUUUCUCUUCCCGAGCUGUUUUUCCGAGCAGUUUUGUUCGUGUCUCUUAAGGAAAUCACCAGCUUUGGCAUUGGAAUUCUCGGGUGCCAA` is recorded as 0.403.
`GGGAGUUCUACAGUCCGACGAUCUACCUGCCACUUGGUCCUGGGAGGUCAAAGGCCACAGAGGGAUAGGUACAGUCACCACCACCCUGGAACCAAGGGUCUCACACCAUUGCUCAGUGCUGAACUAUAACUGCUGGAAUUCUCGGGUGCCAA`: “RBNS enrichment (R)” 0.46.

Sample 3
Target: Sal-like protein 4, full length isoform B (SALL4, Homo sapiens, UniProt Q9UJQ4-2, residues 1-616)
Method: universal PBM
Molecule type: double-stranded DNA, one strand shown
Matrix: in vitro
Tested at: not given
Setting: 8-mer, flanks averaged, mean of replicates
Direction: higher = stronger binding
Residues (chain): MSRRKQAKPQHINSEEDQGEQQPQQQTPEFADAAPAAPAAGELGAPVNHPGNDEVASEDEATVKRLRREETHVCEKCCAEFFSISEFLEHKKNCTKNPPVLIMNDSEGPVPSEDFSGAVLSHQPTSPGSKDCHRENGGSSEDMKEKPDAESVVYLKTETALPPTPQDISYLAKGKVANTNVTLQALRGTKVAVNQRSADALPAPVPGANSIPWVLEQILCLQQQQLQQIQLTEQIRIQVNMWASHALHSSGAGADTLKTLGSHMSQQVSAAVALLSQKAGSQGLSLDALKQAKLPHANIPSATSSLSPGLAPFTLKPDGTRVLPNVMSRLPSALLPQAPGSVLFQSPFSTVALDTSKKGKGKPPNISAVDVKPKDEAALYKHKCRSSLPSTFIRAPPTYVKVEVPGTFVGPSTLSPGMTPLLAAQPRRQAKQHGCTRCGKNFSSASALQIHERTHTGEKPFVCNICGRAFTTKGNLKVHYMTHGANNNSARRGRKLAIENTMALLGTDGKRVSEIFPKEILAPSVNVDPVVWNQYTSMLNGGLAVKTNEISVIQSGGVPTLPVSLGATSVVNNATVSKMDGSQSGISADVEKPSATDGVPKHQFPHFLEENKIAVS
For `ATAAAAGA`, the E-score was 0.261.
`AAAATCCA` gave an E-score of 0.185.
`AGGGCGGA` has an E-score of -0.293.
With `AAGTGACA` the E-score was 0.189.
`CGTACCTA` gave an E-score of -0.11.
`CCCCTCCG` gave an E-score of -0.236.
The E-score of `AAGGAGAA` is reported as 0.115.
For `AGCCTTGC`, the E-score was -0.319.
`GATAGTAA` has an E-score of 0.197.
For `ACAGGTTA`, the E-score was 0.0456.
For `ACTCATCT`, the E-score was 0.165.
For `AAGGTGGG`, the E-score was -0.25.
The E-score of `AGCGGAAA` is reported as -0.122.
`CCAAATCC` gave an E-score of -0.104.
`AAACGAAA` has an E-score of 0.12.
With `ACAGGGCG` the E-score was -0.192.
`AAACGGCA` gave an E-score of -0.0197.
`GCCACGAA` has an E-score of -0.156.
The E-score of `CAGCGGCC` is reported as -0.316.
For `AAGCGTTG`, the E-score was -0.0644.
With `AGATGATC` the E-score was 0.0649.
For `GAGTGCCC`, the E-score was -0.368.

Sample 4
Target: Ras GTPase-activating protein-binding protein 1, C-terminal RGG region (G3BP1, Homo sapiens, UniProt Q13283)
UniProt Q13283, sequence (whole entry, looked up): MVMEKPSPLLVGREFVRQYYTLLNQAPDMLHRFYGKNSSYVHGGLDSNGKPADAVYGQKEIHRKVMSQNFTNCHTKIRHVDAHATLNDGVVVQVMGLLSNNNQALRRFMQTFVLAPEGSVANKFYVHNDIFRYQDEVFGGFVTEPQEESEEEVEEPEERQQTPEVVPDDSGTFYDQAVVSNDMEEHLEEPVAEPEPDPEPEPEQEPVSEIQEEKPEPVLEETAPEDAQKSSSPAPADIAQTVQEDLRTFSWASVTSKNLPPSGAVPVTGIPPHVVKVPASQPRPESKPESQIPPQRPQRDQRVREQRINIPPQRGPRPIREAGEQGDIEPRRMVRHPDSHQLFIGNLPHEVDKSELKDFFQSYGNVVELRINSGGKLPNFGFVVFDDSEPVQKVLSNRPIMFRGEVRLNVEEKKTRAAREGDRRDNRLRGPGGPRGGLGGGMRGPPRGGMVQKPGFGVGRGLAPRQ
Method: RNA Bind-n-Seq
Molecule type: RNA
Matrix: in vitro
Tested at: 1 µM
Setting: whole 134-nt RNA, ends assumed
With: 150 mM KCl
Relative to: input library
Direction: higher = stronger binding
For `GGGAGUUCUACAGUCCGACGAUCCUGUGCUACACAUCGUAUGUACCGAAUCGGGAAAAAAAGGGUUUUUUUGGGAAAAAAAGGGAAAGUAUUAUGUUACGCCGUUCGGAUCUGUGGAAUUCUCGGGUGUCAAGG`, the log2 enrichment was -2.14.
The log2 enrichment of `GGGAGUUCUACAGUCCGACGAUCUUCCUCAAGUCCUGUGCUACACAUCGUAUGUACCGAAUCGGCGGGCGGCGGAAAGUAUUAUGUUACGCCGUUCGGAUCUGCACUUCCAGCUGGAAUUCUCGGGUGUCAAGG` is reported as -0.464.
`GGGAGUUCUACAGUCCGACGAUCGUCCUGUGCUACACAUCGUAUGUACCGAAUCGGGUUUUUGGGUUUGGGUUUUUUUGGGAAAGUAUUAUGUUACGCCGUUCGGAUCUGCACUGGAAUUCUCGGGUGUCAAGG` gave a log2 enrichment of 0.0681.
`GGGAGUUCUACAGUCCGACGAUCAGUCCUGUGCUACACAUCGUAUGUACCGAAUCGGGUUUUUGGGUUUUUGGGUUUUUGGAAAGUAUUAUGUUACGCCGUUCGGAUCUGCACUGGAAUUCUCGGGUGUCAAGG` gave a log2 enrichment of -1.11.
`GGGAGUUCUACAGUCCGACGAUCAAGUCCUGUGCUACACAUCGUAUGUACCGAAUCGGUUUUUUUGGAGGUUUUUUUGGAAAGUAUUAUGUUACGCCGUUCGGAUCUGCACUUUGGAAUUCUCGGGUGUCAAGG` has a log2 enrichment of -1.99.
`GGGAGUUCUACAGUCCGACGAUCUAACUUUAGAGGAGGAUUUGAUGGAUAUGGCAGUGGACGUGGAUUUGGGGAUGGCUAUAAUGGGUAUGGAGGAGGACCUGGAGGUGGCAAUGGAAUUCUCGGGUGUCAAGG` gave a log2 enrichment of -1.45.
The log2 enrichment of `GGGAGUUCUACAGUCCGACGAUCGCAGGAAGUAAAAACAAAUGGAAAUGCUUCGGAUAGUGGCAGGGGUGGGGGUUGCUAAGGAAAGGUUGGGAUGGGAGUGGGUAAAGAGUUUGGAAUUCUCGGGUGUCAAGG` is reported as 2.
`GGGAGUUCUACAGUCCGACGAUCGCAGGAAGUAAAAACAAAUGGAAAUGCUUCGGAUAGUGGCAGGGGUGGGGGUUGCUAAGGAAAGGGUGGGAUGGGAGUGGGUAAAGAGUGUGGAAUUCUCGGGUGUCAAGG` gave a log2 enrichment of 1.62.
`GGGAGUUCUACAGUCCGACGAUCUUCCUCAAGUCCUGUGCUACACAUCGUAUGUACCGAAUCGGUGGUGGUGGGAAAGUAUUAUGUUACGCCGUUCGGAUCUGCACUUCCAGCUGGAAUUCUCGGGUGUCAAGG` has a log2 enrichment of -0.412.
The log2 enrichment of `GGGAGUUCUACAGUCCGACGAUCAAGUCCUGUGCUACACAUCGUAUGUACCGAAUCGGGGUUUGGGGUGGGGAAAGGGGAAAGUAUUAUGUUACGCCGUUCGGAUCUGCACUUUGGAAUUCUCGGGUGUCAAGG` is reported as 1.93.

Some of these lines once more (sample 3):
The E-score of `CAGCGGCC` is reported as -0.316.
`AAACGAAA` has an E-score of 0.12.
With `AGATGATC` the E-score was 0.0649.
`CCAAATCC` gave an E-score of -0.104.
`GATAGTAA` has an E-score of 0.197.
